Measurements collected from several papers.
Numbered parts are unrelated; each lists some results of a single study.
UniProt Q16620, sequence (whole entry, looked up): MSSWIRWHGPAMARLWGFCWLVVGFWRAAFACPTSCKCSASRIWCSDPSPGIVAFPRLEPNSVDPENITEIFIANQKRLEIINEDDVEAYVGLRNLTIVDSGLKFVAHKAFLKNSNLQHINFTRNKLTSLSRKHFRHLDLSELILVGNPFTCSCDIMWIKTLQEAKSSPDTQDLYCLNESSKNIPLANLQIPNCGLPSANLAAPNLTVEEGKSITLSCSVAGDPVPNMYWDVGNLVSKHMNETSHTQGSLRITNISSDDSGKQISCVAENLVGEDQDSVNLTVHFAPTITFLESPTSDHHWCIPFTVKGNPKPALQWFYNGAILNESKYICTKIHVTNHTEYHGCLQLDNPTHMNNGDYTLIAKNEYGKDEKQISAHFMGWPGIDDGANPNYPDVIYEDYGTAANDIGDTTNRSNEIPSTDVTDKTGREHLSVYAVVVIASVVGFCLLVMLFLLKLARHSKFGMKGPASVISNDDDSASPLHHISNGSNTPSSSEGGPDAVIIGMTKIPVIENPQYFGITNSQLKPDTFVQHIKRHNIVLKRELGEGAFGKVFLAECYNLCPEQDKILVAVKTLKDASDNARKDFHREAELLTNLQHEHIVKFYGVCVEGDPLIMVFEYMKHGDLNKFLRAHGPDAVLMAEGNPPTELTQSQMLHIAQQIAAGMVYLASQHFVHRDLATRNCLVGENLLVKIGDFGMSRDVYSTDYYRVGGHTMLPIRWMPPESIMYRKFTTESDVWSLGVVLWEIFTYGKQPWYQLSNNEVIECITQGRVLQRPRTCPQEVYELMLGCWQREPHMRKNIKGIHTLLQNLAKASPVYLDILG
UniProt Q16659, sequence (whole entry, looked up): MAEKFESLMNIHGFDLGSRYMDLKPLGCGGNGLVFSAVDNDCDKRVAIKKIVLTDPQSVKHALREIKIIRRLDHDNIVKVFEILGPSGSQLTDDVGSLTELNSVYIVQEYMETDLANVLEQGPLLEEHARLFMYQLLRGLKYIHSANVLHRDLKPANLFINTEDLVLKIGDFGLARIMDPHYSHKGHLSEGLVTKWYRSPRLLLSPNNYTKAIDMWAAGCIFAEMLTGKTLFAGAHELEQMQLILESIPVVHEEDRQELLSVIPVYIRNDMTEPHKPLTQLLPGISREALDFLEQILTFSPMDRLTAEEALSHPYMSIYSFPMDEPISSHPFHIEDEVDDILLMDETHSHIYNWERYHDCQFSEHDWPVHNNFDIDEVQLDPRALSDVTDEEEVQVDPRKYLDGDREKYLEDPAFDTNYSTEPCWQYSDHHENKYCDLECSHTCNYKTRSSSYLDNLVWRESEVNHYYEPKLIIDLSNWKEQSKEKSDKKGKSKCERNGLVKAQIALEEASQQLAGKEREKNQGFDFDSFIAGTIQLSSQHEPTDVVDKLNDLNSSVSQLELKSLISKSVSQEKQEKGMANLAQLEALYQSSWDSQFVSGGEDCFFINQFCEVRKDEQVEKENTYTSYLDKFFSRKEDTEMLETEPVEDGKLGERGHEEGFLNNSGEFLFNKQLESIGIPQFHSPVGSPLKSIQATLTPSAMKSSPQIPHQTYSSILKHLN
UniProt Q9HCP0, sequence (whole entry, looked up): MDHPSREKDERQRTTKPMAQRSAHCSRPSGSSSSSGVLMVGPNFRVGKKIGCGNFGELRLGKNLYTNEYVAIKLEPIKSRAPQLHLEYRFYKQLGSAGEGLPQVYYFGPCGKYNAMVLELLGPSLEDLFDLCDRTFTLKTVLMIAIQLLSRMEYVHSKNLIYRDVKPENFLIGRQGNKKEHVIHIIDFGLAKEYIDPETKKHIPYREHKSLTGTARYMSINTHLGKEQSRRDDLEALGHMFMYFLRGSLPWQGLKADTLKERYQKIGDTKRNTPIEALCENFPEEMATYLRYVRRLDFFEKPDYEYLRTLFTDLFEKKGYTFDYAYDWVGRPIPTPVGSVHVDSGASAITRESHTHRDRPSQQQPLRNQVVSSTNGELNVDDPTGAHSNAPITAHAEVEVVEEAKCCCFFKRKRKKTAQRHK
UniProt Q8NFD2, sequence (whole entry, looked up): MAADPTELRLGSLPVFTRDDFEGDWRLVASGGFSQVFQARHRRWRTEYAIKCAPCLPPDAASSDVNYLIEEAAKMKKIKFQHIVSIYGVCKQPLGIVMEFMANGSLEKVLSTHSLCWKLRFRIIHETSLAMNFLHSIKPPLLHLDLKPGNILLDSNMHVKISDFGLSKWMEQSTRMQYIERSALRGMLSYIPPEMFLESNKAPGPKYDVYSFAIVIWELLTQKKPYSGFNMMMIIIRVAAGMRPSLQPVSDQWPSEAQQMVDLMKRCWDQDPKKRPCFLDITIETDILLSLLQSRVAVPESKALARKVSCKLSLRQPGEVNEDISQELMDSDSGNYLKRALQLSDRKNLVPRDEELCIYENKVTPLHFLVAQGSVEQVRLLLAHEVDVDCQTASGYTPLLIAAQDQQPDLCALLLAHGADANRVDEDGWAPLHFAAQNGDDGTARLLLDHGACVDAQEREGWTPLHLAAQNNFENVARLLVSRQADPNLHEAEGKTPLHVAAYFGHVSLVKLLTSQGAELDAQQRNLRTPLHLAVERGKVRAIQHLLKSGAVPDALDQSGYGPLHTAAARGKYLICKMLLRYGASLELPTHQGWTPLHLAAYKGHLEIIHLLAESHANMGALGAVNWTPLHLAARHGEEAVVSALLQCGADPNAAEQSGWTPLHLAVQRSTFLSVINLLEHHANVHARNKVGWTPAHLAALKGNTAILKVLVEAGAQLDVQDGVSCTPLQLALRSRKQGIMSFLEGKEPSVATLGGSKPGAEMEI
UniProt Q6P2M8, sequence (whole entry, looked up): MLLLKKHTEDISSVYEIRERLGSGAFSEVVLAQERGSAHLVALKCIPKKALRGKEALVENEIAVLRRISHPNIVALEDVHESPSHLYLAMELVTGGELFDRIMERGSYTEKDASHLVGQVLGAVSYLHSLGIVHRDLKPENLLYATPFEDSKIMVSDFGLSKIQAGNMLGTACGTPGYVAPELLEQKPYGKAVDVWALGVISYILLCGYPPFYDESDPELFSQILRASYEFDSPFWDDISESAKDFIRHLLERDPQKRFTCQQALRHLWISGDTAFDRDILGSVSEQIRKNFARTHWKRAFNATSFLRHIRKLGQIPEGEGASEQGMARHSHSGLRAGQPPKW
UniProt P10721, sequence (whole entry, unmodified, looked up): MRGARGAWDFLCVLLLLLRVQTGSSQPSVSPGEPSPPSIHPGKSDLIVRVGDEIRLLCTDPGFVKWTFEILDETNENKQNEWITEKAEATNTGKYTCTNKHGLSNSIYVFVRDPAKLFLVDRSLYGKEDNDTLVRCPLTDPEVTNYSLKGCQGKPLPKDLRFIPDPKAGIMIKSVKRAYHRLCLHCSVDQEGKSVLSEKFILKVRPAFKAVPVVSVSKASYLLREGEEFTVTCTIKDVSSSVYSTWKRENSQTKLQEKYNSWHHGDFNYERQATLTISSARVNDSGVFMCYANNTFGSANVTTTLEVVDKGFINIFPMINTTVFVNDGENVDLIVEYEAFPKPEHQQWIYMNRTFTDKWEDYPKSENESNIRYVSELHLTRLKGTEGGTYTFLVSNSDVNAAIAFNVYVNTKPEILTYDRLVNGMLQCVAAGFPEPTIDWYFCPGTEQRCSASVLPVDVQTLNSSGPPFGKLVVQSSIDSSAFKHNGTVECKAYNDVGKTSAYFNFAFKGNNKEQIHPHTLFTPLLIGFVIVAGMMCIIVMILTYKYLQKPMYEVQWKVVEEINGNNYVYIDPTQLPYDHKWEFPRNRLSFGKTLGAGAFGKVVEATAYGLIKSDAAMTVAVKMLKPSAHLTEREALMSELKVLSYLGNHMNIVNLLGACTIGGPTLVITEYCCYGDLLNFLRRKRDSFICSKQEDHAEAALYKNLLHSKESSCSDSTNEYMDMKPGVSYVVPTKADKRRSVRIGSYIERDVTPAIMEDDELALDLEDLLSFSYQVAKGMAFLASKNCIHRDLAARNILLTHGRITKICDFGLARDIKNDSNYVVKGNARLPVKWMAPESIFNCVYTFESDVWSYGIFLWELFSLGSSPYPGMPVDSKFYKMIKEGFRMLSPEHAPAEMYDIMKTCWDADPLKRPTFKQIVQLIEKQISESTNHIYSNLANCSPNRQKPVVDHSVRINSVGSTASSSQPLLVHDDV

Sample 1
Structure (SMILES): COCCOc1nc(-c2ccc(Cl)nc2)nc2c1CN(C(=O)c1ncn3ccccc13)CC2
Method: competition with immobilised ligand
Tested at: 0.1 µM
Measurement: remaining binding
target = TXK (Homo sapiens, UniProt P42681); assay = binding; value = 100%
target = KIT (Homo sapiens, UniProt P10721, V559D/V654A); assay = cell-free assay; value = 75%
target = CDK8 (Homo sapiens, UniProt P49336); assay = cell-free assay; value = 100%
target = PIP4K2B (Homo sapiens, UniProt P78356); assay = cell-free assay; value = 59%
target = DAPK3 (Homo sapiens, UniProt O43293); assay = cell-free assay; value = 100%
target = ACVR1B (Homo sapiens, UniProt P36896); assay = cell-free assay; value = 86%
target = NTRK2 (Homo sapiens, UniProt Q16620); assay = cell-free assay; value = 100%

Sample 2
SMILES: COc1ccc2[nH]c3c4[nH]c5ccc(OC)cc5c4c4c(c3c2c1)C(=O)NC4=O
Tested at: 1 µM
Measurement: remaining binding
target = NTRK2 (Homo sapiens, UniProt Q16620); assay = competitive binding; conditions = TRKB; value = 59%
target = MAPK6 (Homo sapiens, UniProt Q16659); assay = competitive binding panel, item: ERK3; scale = reference: vehicle; value = 84%
target = LATS2 (Homo sapiens, UniProt Q9NRM7); assay = competitive binding panel; scale = reference: vehicle; value = 43%
target = DYRK1A (Homo sapiens, UniProt Q13627); assay = competitive binding panel; scale = reference: vehicle; value = 48%
target = PNCK (Homo sapiens, UniProt Q6P2M8); assay = competitive binding; conditions = CAMK1B; value = 78%
target = PIP4K2C (Homo sapiens, UniProt Q8TBX8); assay = competitive binding panel, item: PIP5K2C; scale = reference: vehicle; value = 28%
target = CSNK1G1 (Homo sapiens, UniProt Q9HCP0); assay = competitive binding panel; scale = reference: vehicle; value = 74%
target = ANKK1 (Homo sapiens, UniProt Q8NFD2); assay = competitive binding panel; scale = reference: vehicle; value = 71%

Sample 3
Target: Mitogen-activated protein kinase kinase kinase 3 (MAP3K3, Homo sapiens, UniProt Q99759)
UniProt Q99759, sequence (whole entry, looked up): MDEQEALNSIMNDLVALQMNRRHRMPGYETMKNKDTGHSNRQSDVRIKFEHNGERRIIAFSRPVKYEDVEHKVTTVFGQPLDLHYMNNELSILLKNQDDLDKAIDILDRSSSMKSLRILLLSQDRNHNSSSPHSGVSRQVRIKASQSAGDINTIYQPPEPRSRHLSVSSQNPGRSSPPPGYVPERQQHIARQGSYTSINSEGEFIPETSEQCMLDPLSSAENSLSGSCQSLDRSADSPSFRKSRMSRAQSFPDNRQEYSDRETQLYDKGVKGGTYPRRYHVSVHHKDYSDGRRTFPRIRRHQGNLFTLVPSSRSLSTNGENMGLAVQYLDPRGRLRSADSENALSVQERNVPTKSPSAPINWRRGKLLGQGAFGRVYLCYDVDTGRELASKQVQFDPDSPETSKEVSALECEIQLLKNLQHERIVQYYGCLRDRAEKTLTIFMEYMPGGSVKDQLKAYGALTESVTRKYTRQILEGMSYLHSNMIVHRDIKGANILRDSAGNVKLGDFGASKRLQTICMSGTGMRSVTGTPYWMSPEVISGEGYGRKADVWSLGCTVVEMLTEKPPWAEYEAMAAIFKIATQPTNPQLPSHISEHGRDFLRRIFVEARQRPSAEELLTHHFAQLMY
Observed: enzyme activity
Action: inhibitor
Tested at: 0.5 µM
Reference: control
Measurement: remaining activity
SMILES = O=S(=O)(c1cccc2cnccc12)N1CCCNCC1; value = 89.3%
SMILES = Cn1sc(=O)n(Cc2ccccc2)c1=O; value = 94.2%
SMILES = O=C(CCCc1ccc(-c2ccccc2F)cc1)Nc1ccc(O)cc1; value = 108%
SMILES = OCC(O)CCON=C1C(c2c(O)[nH]c3ccccc23)=Nc2ccccc21 (stereo not shown); value = 87.8%
SMILES = Cc1nc(-c2ccccc2)c(-c2ccncc2)o1; value = 101%
SMILES = CC(C)[C@H](CO)Nc1nc(Nc2cc(N)cc(Cl)c2)c2ncn(C(C)C)c2n1; value = 100%
SMILES = O=C1NC(=O)C(c2cn(CCCO)c3ncccc23)=C1c1cnccn1; value = 88.3%
SMILES = COc1cc2ncnc(Nc3ccc(Oc4ccccc4)cc3)c2cc1OC; value = 94.5%
SMILES = Cc1ccc(Nc2nccc(N(C)c3ccc4c(C)n(C)nc4c3)n2)cc1S(N)(=O)=O; value = 112%
SMILES = Cn1c2ccccc2c2c3c(c4c5ccccc5n(CCC#N)c4c21)CNC3=O; value = 5.86%
SMILES = O=C(Nc1cccc(Nc2cc(Nc3cccc(C(F)(F)F)c3)ncn2)c1)C1CC1; value = 95.2%
SMILES = COc1ccc(OC)c2c(=S)c3ccccc3[nH]c12; value = 117%
SMILES = Nc1ccc2ncnc(NCCc3ccc(Oc4ccccc4)cc3)c2c1; value = 106%
SMILES = CCOC(=O)c1c(C)[nH]c(/C=C2\C(=O)Nc3ccccc32)c1C; value = 92.8%
SMILES = Oc1ccc(-c2nc(-c3ccncc3)c(-c3ccc(F)cc3)[nH]2)cc1; value = 103%
SMILES = NCCNc1ncc(C(N)=O)c(Nc2cccc(C(F)(F)F)c2)n1; value = 104%

Sample 4
Cell line: Huh-7
Tested at: 10 µM
Time: 24 h
Measurement: viability
SMILES = O=C(O)[C@H]1/C(=C/CO)O[C@@H]2CC(=O)N21; value = 102%
SMILES = CCN1CCN(C(=O)N[C@@H](C(=O)N[C@@H]2C(=O)N3C(C(=O)O)=C(CSc4nnnn4C)CS[C@H]23)c2ccc(O)cc2)C(=O)C1=O; value = 100%
SMILES = CC(C)[C@H](N)C(=O)OCCOCn1cnc2c(=O)[nH]c(N)nc21; value = 97.6%
SMILES = CCOC(=O)[C@H](CCc1ccccc1)N[C@H]1CCc2ccccc2N(CC(=O)O)C1=O; value = 96%
SMILES = CCOC(=O)[C@H](CCc1ccccc1)N[C@@H](C)C(=O)N1Cc2ccccc2C[C@H]1C(=O)O; value = 97%
SMILES = CCN1CCCC(OC(=O)C(c2ccccc2)c2ccccc2)C1 (stereo not shown); value = 100%
